Results pooled from the literature.
Target: Calcium-dependent protein kinase 1 (CDPK1, Plasmodium falciparum, UniProt P62344)

The remaining binding of COc1c(Cl)cccc1Nc1c(-c2ccncc2C#C[C@@]2(C)CCCN2C(=O)/C=C/CN(C)C)[nH]c2c1C(=O)NCC2 is reported as 26% (cell-free assay, competition with immobilised ligand; 3 µM).
With Cc1ccc(-c2c(/C=C(\C#N)C(=O)NC(C)C)n(CCCO)c3ncnc(N)c23)cc1 the remaining binding was 68% (cell-free assay, competition with immobilised ligand; 1 µM).
The remaining binding of C=CC(=O)N1CCCC(n2c(=O)c3ncccc3n(Cc3ccc(Oc4ccccc4)cc3)c2=O)C1 (centres unmarked) is reported as 60% (cell-free assay, competition with immobilised ligand; 1 µM).
With CNC1C[S+]2CC[S+]3CC[S+](C1)[Ru-4]321([N]=C=S)[n]2c3ccc(OC)cc3c3c4c(c5cc(F)c[n+]1c5c32)C(=O)NC4=O (centres unmarked) the binding was 100% (KinomeScan; 0.1 µM; baseline: control).
For Cc1cnc2nc1Nc1cccc(c1)COC/C=C/COCc1cc(ccc1OCCN1CCOCC1)N2, the remaining binding was 84% (binding; 0.1 µM).
Nc1ncc2c(n1)-c1c([nH]c3ccc(C4=CCOCC4)cc13)CCC2 gave a remaining binding of 91% (binding, competition with immobilised ligand; 1 µM).
The remaining binding of CC(C)=CC1OC(C)(C)C2C=C3C(=O)C(Cl)=CC(O)C3C3C(O)C4OC4C(=O)C132 (centres unmarked) is reported as 81% (cell-free assay, competition with immobilised ligand; 10 µM).
With COc1cc(Nc2nccc(-c3cnn4nc(OC)ccc34)n2)cc(C(F)(F)F)c1 the remaining binding was 80% (binding, competition with immobilised ligand; 1 µM).
CCN1CCN(Cc2ccc(C(=O)Nc3ccc(C)c(NCc4cnc5[nH]ccc5c4OC)c3)cc2C(F)(F)F)CC1 gave a remaining binding of 2.6% (binding, competition with immobilised ligand; 1 µM).
C=CC(=O)N1CCc2ccc(-n3c(=O)ccc4cnc5ccc(-c6cnn(C)c6)cc5c43)cc21 has a remaining binding of 100% (KINOMEscan; 1 µM; baseline: control).
CNC(=O)C1CCN(c2cc(C)c(F)cc2NC(=O)c2ccc(-c3cc(O)ccc3C)c(C)c2)CC1 has a remaining binding of 100% (binding, competition with immobilised ligand; 1 µM).

A few entries again:
The remaining binding of CC(C)=CC1OC(C)(C)C2C=C3C(=O)C(Cl)=CC(O)C3C3C(O)C4OC4C(=O)C132 (centres unmarked) is reported as 81% (cell-free assay, competition with immobilised ligand; 10 µM).
Nc1ncc2c(n1)-c1c([nH]c3ccc(C4=CCOCC4)cc13)CCC2 gave a remaining binding of 91% (binding, competition with immobilised ligand; 1 µM).
